Measured values collected from several papers.
Every numbered part comes from another study and shows a few of its results, in no order. Positions count from the first letter of the parent shown.

Study 1
Target: Phosphate system positive regulatory protein PHO4, full length, GST-tagged (PHO4, Saccharomyces cerevisiae, UniProt P07270, residues 1-312)
Technique: competition protein-binding microarray
Form: double-stranded DNA, one strand shown
Sample: in vitro
Concentration: 2 µM
Setting: whole 60-bp probe, lowest competitor level
Added: Cbf1 competitor, 0.05 µM
Reading: higher = stronger binding
All sequences stand within: … GTCTTGATTCGCTTGACGCTGCTG
Residues (chain): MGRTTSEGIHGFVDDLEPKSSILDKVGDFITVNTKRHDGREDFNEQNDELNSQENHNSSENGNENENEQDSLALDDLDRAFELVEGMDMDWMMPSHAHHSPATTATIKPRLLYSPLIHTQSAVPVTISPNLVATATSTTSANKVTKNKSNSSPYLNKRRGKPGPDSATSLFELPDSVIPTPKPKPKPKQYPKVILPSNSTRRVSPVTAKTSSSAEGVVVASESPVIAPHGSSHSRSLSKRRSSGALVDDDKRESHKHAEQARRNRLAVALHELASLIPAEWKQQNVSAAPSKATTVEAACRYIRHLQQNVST
| Strand | fluorescence intensity [a.u.] |
| --- | --- |
| GCAATTCTTAGAGGCCACGTGGGCAGAGAGCGGCGC | 20700 |
| CTTCTGTAAATTTGCTGTGTGGGTGGACGCGCCCCG | 4850 |
| TACATCTACCGCTGAAACGTGGATTCAAGGAACAGT | 12700 |
| AAAGCGGTAATTTGATAAGTGGGTGCAGATATCTAT | 3740 |
| CTTTCCCGATCTTGGCGAGTGGGTGTAGCACATTTG | 5010 |
| TTCCGTTATTGTTAGCGCGTGAAACTGCCATGTCGG | 5520 |
| GGTCCCGGTCTACCGCTCGTGGCAATTTCAAAAGCC | 9120 |
| ATCTTTCCACCCTGGCACGTGTTTCTTGTACATTTG | 20200 |

Study 2
Target: FOSL1, bZIP domain (human)
Technique: DHFR protein complementation
Sample: yeast
Setting: single substitutions, most at no-binding floor
Baseline: wild-type JUN-FOS pair
Reading: higher = stronger binding
Parent: JUN, bZIP domain (human); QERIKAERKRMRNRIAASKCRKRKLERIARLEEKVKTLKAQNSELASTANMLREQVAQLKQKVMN; partner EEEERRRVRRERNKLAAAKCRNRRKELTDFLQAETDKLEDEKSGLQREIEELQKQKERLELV
| Substitution | binding fitness |
| --- | --- |
| L59A | -1.16 natural log |
| A40P | -1.34 natural log |
| L38H | -1.39 natural log |
| E54G | -0.548 natural log |
| Q55H | -0.571 natural log |
| Q55L | -0.682 natural log |
| R30A | -0.0458 natural log |
| K36V | -0.507 natural log |

Study 3
Target: HLA class I histocompatibility antigen, A alpha chain, allele A*80:01 (Homo sapiens, UniProt P04439)
Observed: peptide-MHC binding
Form: peptide
Concentration: concentration not given
| Sequence | binding |
| --- | --- |
| EKAAWGVAL | inactive |
| VFSDGRVAC | inactive |
| MRIGSMATL | inactive |
| NVMAADPPK | inactive |

Study 4
Target: CCNE1, cyclin fold, Cln2 fusion (human)
Technique: yeast growth competition, sequencing
Sample: yeast
Setting: strong parent motif
Baseline: not given
Reading: higher = stronger binding
Parent: viral docking peptide; YKVKRRLVFGADD
| Substitution | normalised enrichment score |
| --- | --- |
| K2W | 4.27 |
| L7N | 0.251 |
| A11I | 6.16 |
| K4R | 6.04 |
| G10L | 5.06 |
| G10C | 5.63 |
| K4Q | 3.99 |
| R5K | 2.46 |
| K4E | 1.57 |
| R5Q | 0.624 |
| R6S | 1.21 |
| R5D | 0.163 |
| L7V | 0.563 |
| V8P | 0.491 |
| F9N | 0.282 |
| F9D | 0.48 |
| F9C | 0.489 |

Some of these lines once more (study 4):
| Substitution | normalised enrichment score |
| --- | --- |
| F9D | 0.48 |
| F9C | 0.489 |
